# Published values of several laboratories.
# Every numbered part comes from another study and shows a few of its results, in no order.
# Sequence of UniProt P42336 (whole entry, unmodified, looked up): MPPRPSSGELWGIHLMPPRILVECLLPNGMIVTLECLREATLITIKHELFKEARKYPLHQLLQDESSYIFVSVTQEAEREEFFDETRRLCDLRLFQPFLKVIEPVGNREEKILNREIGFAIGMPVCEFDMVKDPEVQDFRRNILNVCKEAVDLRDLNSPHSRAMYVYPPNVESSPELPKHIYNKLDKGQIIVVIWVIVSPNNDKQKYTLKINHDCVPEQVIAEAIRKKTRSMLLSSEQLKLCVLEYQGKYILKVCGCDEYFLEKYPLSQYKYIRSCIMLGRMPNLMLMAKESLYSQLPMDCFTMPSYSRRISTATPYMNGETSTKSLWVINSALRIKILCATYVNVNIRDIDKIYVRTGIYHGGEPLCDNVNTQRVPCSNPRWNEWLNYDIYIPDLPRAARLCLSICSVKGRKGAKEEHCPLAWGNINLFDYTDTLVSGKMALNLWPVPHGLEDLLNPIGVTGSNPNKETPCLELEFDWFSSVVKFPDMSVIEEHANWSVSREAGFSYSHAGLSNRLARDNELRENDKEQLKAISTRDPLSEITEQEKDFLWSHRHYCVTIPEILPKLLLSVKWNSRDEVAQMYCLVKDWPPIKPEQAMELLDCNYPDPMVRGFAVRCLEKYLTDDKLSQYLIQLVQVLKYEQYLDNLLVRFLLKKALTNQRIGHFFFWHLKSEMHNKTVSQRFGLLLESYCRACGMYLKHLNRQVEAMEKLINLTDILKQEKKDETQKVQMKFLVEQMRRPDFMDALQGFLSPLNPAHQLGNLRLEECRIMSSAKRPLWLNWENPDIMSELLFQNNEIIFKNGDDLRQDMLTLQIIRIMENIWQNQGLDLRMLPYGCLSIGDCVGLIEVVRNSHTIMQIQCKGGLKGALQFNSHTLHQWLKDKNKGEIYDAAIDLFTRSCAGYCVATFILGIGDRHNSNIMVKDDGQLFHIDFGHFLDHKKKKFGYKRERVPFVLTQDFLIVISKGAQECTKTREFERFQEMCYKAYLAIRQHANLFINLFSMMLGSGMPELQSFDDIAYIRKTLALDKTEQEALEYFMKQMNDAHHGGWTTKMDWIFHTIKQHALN
# Sequence of UniProt Q9UF33 (whole entry, looked up): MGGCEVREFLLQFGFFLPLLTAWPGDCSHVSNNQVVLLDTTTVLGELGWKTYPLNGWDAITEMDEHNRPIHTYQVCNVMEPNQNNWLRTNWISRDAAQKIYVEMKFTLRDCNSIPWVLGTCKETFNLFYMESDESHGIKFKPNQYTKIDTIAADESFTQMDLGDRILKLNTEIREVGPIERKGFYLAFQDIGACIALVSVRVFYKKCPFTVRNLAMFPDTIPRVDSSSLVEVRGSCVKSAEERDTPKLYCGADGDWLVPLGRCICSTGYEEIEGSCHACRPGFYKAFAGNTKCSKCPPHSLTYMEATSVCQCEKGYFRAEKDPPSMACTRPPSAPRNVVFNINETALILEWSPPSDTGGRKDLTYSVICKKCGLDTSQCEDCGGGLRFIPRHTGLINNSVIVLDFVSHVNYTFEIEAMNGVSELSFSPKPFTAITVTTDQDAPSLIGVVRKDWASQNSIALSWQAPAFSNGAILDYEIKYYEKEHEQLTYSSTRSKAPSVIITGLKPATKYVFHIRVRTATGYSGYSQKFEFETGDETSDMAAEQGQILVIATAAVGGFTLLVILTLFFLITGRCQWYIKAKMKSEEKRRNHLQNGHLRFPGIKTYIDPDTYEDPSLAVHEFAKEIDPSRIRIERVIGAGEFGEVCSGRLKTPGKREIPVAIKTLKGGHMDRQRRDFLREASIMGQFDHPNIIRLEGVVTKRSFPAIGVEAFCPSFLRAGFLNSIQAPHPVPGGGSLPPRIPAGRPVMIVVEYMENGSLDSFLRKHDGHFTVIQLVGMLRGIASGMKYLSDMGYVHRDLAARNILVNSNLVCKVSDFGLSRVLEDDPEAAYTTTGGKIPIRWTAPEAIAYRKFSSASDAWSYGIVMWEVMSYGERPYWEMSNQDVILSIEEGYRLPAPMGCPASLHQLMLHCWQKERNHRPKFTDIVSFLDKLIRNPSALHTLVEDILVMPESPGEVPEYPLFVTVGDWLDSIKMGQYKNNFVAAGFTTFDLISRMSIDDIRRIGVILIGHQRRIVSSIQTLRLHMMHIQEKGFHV
# Sequence of UniProt P35372 (whole entry, looked up): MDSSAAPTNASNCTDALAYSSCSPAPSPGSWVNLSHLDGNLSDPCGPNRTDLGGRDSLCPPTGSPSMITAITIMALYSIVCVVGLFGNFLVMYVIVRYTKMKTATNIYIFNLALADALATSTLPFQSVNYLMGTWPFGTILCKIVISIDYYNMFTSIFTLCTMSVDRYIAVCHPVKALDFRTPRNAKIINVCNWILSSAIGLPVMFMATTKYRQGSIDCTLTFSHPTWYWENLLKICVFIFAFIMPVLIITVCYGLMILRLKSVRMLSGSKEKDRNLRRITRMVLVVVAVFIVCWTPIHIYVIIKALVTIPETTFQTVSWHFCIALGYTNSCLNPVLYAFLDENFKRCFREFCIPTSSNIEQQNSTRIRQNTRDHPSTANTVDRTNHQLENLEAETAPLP
# Sequence of UniProt Q13164 (whole entry, looked up): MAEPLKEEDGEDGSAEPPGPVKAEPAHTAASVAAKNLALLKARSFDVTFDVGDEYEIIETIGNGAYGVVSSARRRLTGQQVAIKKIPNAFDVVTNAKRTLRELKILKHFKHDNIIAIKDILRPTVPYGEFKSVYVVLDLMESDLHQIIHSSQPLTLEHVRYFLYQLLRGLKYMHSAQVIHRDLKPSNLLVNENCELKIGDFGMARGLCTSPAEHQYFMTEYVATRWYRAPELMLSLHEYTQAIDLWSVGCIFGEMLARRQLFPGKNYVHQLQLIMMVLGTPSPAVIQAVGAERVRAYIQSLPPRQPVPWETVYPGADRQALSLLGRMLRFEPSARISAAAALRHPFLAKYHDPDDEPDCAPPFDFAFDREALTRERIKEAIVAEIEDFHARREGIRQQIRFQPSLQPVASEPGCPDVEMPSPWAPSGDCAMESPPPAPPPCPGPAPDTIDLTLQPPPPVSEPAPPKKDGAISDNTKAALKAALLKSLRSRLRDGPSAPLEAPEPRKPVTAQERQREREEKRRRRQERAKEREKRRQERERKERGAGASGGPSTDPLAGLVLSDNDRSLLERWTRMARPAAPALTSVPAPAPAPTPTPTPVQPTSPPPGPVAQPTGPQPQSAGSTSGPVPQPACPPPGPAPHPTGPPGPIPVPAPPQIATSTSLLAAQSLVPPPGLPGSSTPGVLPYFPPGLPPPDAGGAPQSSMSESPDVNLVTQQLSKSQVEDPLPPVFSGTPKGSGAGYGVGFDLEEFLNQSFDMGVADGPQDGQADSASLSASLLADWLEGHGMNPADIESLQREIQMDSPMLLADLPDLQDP
# Sequence of UniProt Q9BXA7 (whole entry, looked up): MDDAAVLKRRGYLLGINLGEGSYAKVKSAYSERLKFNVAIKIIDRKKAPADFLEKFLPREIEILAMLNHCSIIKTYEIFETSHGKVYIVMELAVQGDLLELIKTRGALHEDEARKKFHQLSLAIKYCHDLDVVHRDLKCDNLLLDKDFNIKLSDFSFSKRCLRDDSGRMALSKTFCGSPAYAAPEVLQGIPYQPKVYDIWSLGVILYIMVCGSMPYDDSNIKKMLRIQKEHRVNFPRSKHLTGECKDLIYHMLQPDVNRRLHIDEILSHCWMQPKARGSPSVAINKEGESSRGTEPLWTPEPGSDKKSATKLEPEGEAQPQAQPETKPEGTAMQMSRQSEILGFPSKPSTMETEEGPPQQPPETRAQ

# Block 1 — observed: cell-free assay; method: competition with immobilised ligand; tested at: 1 µM
# Compound: CC1=C(C#N)C(c2ccc3c(c2)c(NC(=O)c2ccccc2C)nn3C)C(C#N)=C(C)N1
target,remaining binding [%]
"EPHA6 (Homo sapiens, UniProt Q9UF33)",89
"PAK6 (Homo sapiens, UniProt Q9NQU5)",100
"Tyrosine-protein kinase JAK2, JH1 (JAK2, Homo sapiens, UniProt O60674)",77
"MAPK13 (Homo sapiens, UniProt O15264)",79
"Tyrosine-protein kinase ABL1, non-phosphorylated (ABL1, Homo sapiens, UniProt P00519, Q252H)",100
"PAK3 (Homo sapiens, UniProt O75914)",67
"MAP3K9 (Homo sapiens, UniProt P80192)",96
"HUNK (Homo sapiens, UniProt P57058)",78
"ERBB2 (Homo sapiens, UniProt P04626)",86
"MAPK7 (Homo sapiens, UniProt Q13164)",100
"RET (Homo sapiens, UniProt P07949)",97
"WNK2 (Homo sapiens, UniProt Q9Y3S1)",75
"MAP4K4 (Homo sapiens, UniProt O95819)",100
"OXSR1 (Homo sapiens, UniProt O95747)",83
"PIK3CA (Homo sapiens, UniProt P42336)",100
"CDK16 (Homo sapiens, UniProt Q00536)",93
"MINK1 (Homo sapiens, UniProt Q8N4C8)",96
"PRKD2 (Homo sapiens, UniProt Q9BZL6)",95
"TSSK1B (Homo sapiens, UniProt Q9BXA7)",100
"PIM2 (Homo sapiens, UniProt Q9P1W9)",91
"NUAK2 (Homo sapiens, UniProt Q9H093)",81
"PIK3CA (Homo sapiens, UniProt P42336, C420R)",74
"PHKG2 (Homo sapiens, UniProt P15735)",89
"TLK1 (Homo sapiens, UniProt Q9UKI8)",88
"PIK3CG (Homo sapiens, UniProt P48736)",84

# Block 2 — Compound: CC(C)CN(C)c1nc(N)c(C(=O)N=C(N)N)nc1Cl; observed: β-arrestin recruitment; mode: agonist; method: PRESTO-Tango; tested at: 10 µM; relative to: untreated
target,fold over basal
"RXFP3 (Homo sapiens, UniProt Q9NSD7)",1.24
"OPRM1 (Homo sapiens, UniProt P35372)",9.73
"GPR18 (Homo sapiens, UniProt Q14330)",0.79
"GPR84 (Homo sapiens, UniProt Q9NQS5)",1.3
"GPR17 (Homo sapiens, UniProt Q13304)",0.85
"HTR2B (Homo sapiens, UniProt P41595)",1.06
"HTR7 (Homo sapiens, UniProt P34969)",0.82

# Block 3 — mode: inhibitor; tested at: 10 µM; relative to: control
# Target: Diamine acetyltransferase 1 (Homo sapiens, UniProt P21673)
# Construct (P21673 1-171): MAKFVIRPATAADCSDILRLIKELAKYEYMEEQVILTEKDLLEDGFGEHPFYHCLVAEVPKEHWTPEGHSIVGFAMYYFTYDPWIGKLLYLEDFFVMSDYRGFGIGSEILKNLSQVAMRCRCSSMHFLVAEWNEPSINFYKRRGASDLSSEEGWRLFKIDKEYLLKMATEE
SMILES,remaining activity
O=C(O)CCc1cccc(O)c1,89.8%
O=c1c(O)c(-c2ccc(O)cc2)oc2cc(O[C@@H]3O[C@H](CO)[C@@H](O)[C@H](O)[C@H]3O)cc(O)c12,92.4%
C[N+](C)(C)CCO,104%
C[C@@H]1CC[C@@]2(OC1)O[C@H]1C[C@H]3[C@@H]4CC=C5C[C@@H](O[C@@H]6O[C@H](CO)[C@@H](O[C@@H]7O[C@H](CO)[C@@H](O)[C@H](O)[C@H]7O)[C@H](O)[C@H]6O[C@@H]6O[C@@H](C)[C@H](O)[C@@H](O)[C@H]6O)CC[C@]5(C)[C@H]4CC[C@]3(C)[C@H]1[C@@H]2C,96.3%
CC(=O)O[C@@H]1C[C@@H]2CC[C@@]1(C)C2(C)C,102%
CC(C)CCC[C@@H](C)[C@H]1CC[C@H]2[C@@H]3CC[C@H]4C[C@@H](O)CC[C@]4(C)[C@H]3CC[C@]12C,98.2%
COc1ccc(-c2coc3cc(O[C@@H]4O[C@H](CO[C@@H]5OC[C@@H](O)[C@H](O)[C@H]5O)[C@@H](O)[C@H](O)[C@H]4O)c(OC)c(O)c3c2=O)cc1,102%
COc1cc(-c2cc(=O)c3c(O)cc(O)cc3o2)ccc1O,78.5%
O=c1c(O[C@@H]2O[C@H](CO)[C@@H](O)[C@H](O)[C@H]2O)c(-c2ccc(O)c(O)c2)oc2cc(O)cc(O)c12,94.7%
COc1cc(C[C@@H](CO)[C@H](CO)Cc2ccc(O)c(OC)c2)ccc1O,95.1%
O=C(/C=C/c1ccc(O)c(O)c1)NCCc1ccc(O)cc1,103%

# Block 4 — organism: Sarcocystis neurona; observed: parasite growth; tested at: 10 µM; time: 96 h; notes: second screen; relative to: untreated
SMILES,log2 fold change
NS(=O)(=O)c1cc(C(=O)O)c(NCc2ccco2)cc1Cl,0.2
COC(=O)Nc1nc2cc(C(=O)c3ccc(F)cc3)ccc2[nH]1,-0.11
CC1(C)S[C@@H]2[C@H](NC(=O)[C@H](N)c3ccccc3)C(=O)N2[C@H]1C(=O)O,0.26
COCCCC/C(=N\OCCN)c1ccc(C(F)(F)F)cc1,0.29
CCOc1cc(CC(=O)N[C@@H](CC(C)C)c2ccccc2N2CCCCC2)ccc1C(=O)O,0.52
CC(C)[C@H](N)C(=O)OCCOCn1cnc2c(=O)[nH]c(N)nc21,0.31
CN(C)CCCN1c2ccccc2Sc2ccc(Cl)cc21,-0.97
CC(CCc1ccccc1)NCC(O)c1ccc(O)c(C(N)=O)c1 (stereo not shown),0.56
CSc1nc2cc(Cl)c(Oc3cccc(Cl)c3Cl)cc2[nH]1,0.13
CO[C@H]1O[C@@H]2O[C@@]3(C)CC[C@H]4[C@H](C)CC[C@@H]([C@H]1C)[C@@]24OO3,-1.15
CC(=O)O[C@]1(C(C)=O)CC[C@H]2[C@@H]3C[C@H](C)C4=CC(=O)CC[C@]4(C)[C@H]3CC[C@@]21C,0.49
Cc1ccc(Cl)c(Nc2ccccc2C(=O)O)c1Cl,0.37

# For quick reference, copied from above (block 1):
target,remaining binding [%]
"EPHA6 (Homo sapiens, UniProt Q9UF33)",89
"PAK6 (Homo sapiens, UniProt Q9NQU5)",100
"Tyrosine-protein kinase JAK2, JH1 (JAK2, Homo sapiens, UniProt O60674)",77
"MAPK13 (Homo sapiens, UniProt O15264)",79
"Tyrosine-protein kinase ABL1, non-phosphorylated (ABL1, Homo sapiens, UniProt P00519, Q252H)",100
